{"data": "Experimental data of several laboratories", "note": "± gives the spread as reported.", "chain of UniProt Q9Y6L6 (whole entry, looked up)": "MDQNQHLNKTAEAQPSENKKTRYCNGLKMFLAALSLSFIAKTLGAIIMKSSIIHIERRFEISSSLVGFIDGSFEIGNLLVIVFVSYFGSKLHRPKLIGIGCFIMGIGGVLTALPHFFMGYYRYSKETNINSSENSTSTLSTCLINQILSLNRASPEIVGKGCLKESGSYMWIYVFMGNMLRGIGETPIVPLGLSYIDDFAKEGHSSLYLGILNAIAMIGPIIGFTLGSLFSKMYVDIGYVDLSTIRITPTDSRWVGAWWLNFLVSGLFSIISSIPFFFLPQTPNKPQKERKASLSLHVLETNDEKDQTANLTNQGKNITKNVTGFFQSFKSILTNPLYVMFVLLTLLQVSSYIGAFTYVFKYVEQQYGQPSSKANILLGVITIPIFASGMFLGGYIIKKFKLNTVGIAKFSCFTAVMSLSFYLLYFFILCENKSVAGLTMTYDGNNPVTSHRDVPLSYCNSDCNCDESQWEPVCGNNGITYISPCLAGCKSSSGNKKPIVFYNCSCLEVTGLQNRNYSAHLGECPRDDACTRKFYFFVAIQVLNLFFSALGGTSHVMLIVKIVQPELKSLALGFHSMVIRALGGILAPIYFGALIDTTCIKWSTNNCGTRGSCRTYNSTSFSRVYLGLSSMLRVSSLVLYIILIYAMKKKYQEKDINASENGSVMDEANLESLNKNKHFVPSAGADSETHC", "chain of UniProt Q92887 (whole entry, looked up)": "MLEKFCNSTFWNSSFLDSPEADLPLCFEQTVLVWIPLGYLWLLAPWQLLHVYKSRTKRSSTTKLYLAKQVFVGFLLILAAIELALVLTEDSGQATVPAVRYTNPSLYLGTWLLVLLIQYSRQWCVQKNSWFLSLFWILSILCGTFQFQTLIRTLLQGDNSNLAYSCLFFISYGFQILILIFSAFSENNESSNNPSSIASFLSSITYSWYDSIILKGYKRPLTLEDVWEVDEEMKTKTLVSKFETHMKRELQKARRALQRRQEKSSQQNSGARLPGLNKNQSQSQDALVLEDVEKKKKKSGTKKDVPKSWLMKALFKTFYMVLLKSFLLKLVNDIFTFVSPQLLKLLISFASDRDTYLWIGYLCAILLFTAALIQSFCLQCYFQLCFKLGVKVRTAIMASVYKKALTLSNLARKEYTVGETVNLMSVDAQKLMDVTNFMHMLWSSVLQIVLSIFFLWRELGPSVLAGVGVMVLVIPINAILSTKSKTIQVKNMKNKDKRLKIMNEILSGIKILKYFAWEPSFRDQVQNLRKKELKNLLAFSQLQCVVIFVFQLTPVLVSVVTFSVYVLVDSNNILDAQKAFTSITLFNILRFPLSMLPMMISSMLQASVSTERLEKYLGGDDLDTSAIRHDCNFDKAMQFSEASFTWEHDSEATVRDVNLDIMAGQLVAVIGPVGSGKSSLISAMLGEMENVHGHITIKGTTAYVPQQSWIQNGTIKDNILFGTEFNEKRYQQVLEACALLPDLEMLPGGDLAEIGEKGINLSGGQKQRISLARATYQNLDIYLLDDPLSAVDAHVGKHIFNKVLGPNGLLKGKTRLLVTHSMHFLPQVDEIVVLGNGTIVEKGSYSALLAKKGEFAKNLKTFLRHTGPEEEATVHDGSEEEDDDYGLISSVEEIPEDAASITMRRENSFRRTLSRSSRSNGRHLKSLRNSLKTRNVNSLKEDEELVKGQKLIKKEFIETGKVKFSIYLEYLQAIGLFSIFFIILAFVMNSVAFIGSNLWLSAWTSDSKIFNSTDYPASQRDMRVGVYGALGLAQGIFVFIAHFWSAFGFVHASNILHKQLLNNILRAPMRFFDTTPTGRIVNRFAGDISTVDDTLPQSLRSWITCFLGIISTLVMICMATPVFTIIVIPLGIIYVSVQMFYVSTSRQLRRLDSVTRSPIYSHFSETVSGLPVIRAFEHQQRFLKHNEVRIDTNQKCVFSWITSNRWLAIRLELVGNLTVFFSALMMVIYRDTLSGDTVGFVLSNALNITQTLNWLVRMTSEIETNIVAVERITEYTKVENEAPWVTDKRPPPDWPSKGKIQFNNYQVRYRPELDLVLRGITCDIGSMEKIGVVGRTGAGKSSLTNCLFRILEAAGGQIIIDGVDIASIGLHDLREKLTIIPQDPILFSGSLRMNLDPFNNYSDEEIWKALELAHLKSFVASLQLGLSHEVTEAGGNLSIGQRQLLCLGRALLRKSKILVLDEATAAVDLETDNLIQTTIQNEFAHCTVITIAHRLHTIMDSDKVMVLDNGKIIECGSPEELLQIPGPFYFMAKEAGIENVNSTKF", "chain of UniProt P19784 (whole entry, looked up)": "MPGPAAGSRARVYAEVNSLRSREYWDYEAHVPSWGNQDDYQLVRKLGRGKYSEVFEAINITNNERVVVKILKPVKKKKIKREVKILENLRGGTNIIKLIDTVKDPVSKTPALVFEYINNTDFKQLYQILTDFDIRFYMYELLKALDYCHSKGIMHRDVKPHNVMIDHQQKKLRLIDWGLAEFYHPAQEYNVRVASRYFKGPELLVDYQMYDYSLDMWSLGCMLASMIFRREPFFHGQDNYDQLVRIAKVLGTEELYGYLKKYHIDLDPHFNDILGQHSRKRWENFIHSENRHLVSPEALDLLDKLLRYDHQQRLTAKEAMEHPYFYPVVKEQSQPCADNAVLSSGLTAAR"}
{"Compound": "CS(C)(=O)=Nc1ccc(-c2ccc(-c3nc4cc(O[C@@H]5CO[C@H]6[C@@H]5OC[C@H]6O)[nH]c4cc3F)cc2)cc1", "tested on": "Casein kinase II subunit alpha' (CSNK2A2, Homo sapiens, UniProt P19784)", "assay": "enzyme activity, inhibitor", "setting": "10 µM", "endpoint": "inhibition", "result": "-10%"}
{"Compound": "Nc1cccc(-n2[se]c3ccccc3c2=O)c1", "tested on": "HPAEpiC", "assay": "cell growth or viability, MTT", "setting": "24 h", "endpoint": "CC50", "result": "> 100 µM"}
{"Compound": "Oc1cc(O)c2c(c1)OC(c1ccc(O)c(O)c1)C(O)C2c1c(O)cc(O)c2c1OC(c1ccc(O)c(O)c1)C(O)C2 (stereo not drawn)", "tested on": "HEK293T", "setting": "48 h", "endpoint": "CC50", "result": "> 100 µM"}
{"Compound": "O=c1c2ccccc2[se]n1-c1ccncc1", "tested on": "HPAEpiC", "assay": "cell growth or viability, MTT", "setting": "24 h", "endpoint": "CC50", "result": "> 100 µM"}
{"Compound": "C[C@H]1[C@H](OC(=O)CCC(=O)OCc2cn(-c3cc4ccc(O)cc4oc3=O)nn2)O[C@@H]2O[C@@]3(C)CC[C@H]4[C@H](C)CC[C@@H]1[C@@]24OO3", "tested on": "J774", "assay": "cell growth or viability, ATP luminescence", "setting": "72 h", "endpoint": "CC50", "result": "37.6 µM"}
{"Compound": "O=C(N[C@@H](Cc1ccccc1)C(=O)N[C@@H](C[C@@H]1CCNC1=O)C(O)S(=O)(=O)O)OCc1ccccc1 (stereo partly drawn)", "tested on": "RD", "setting": "5 (unit not given)", "endpoint": "CC50", "result": "93.2 ± 5.7 µM"}
{"Compound": "O=C(CCN(CCC(=O)N[C@@H](Cc1c[nH]c2ccccc12)C(=O)O)C(=O)CCN(CCC(=O)N(CCC(=O)N[C@@H](Cc1c[nH]c2ccccc12)C(=O)O)CCC(=O)N[C@@H](Cc1c[nH]c2ccccc12)C(=O)O)C(=O)[C@H]1C[C@@H](C(=O)N(CCC(=O)N(CCC(=O)N[C@@H](Cc2c[nH]c3ccccc23)C(=O)O)CCC(=O)N[C@@H](Cc2c[nH]c3ccccc23)C(=O)O)CCC(=O)N(CCC(=O)N[C@@H](Cc2c[nH]c3ccccc23)C(=O)O)CCC(=O)N[C@@H](Cc2c[nH]c3ccccc23)C(=O)O)C[C@@H](C(=O)N(CCC(=O)N(CCC(=O)N[C@@H](Cc2c[nH]c3ccccc23)C(=O)O)CCC(=O)N[C@@H](Cc2c[nH]c3ccccc23)C(=O)O)CCC(=O)N(CCC(=O)N[C@@H](Cc2c[nH]c3ccccc23)C(=O)O)CCC(=O)N[C@@H](Cc2c[nH]c3ccccc23)C(=O)O)C1)N[C@@H](Cc1c[nH]c2ccccc12)C(=O)O", "tested on": "HEL or HeLa cells", "assay": "cell viability", "endpoint": "CC50", "result": "> 100 µM"}
{"Compound": "O=c1c2ccccc2[se]n1-c1ccc(F)cc1", "tested on": "HPAEpiC", "assay": "cell growth or viability, MTT", "setting": "24 h", "endpoint": "CC50", "result": "> 100 µM"}
{"Compound": "Cc1cc(-c2ccc3ccccc3c2)nnc1NCCN1CCN(C)CC1", "tested on": "ATP-binding cassette sub-family C member 2 (ABCC2, Homo sapiens, UniProt Q92887)", "assay": "transporter uptake, inhibitor", "setting": "10 µM", "endpoint": "inhibition", "result": "0%"}
{"Compound": "CC(=O)NCCCC[C@@H]1NC(=O)[C@H](Cc2c[nH]c3c(C)cccc23)NC(=O)[C@H]([C@@H](C)O)NC(=O)[C@H](CC(N)=O)NC(=O)[C@@H](NC(C)=O)C(C)(C)SSC(C)(C)[C@@H](C(=O)N[C@@H](Cc2ccc(OCCN)cc2)C(=O)N[C@@H](Cc2ccc3ccccc3c2)C(=O)NC2(C(=O)N[C@@H](CCC(=O)O)C(=O)N[C@@H](CC(N)=O)C(=O)N[C@@H](Cc3cccnc3)C(=O)N(C)CC(N)=O)CCOCC2)NC1=O", "tested on": "Solute carrier organic anion transporter family member 1B1 (SLCO1B1, Homo sapiens, UniProt Q9Y6L6)", "assay": "substrate", "test system": "HEK293 expressing SLCO1B1", "setting": "5 µM, 30 min", "endpoint": "uptake rate", "result": "0.095 ± 0.0041 pmol/mg/min"}
{"Compound": "CCN(CC)C(=S)SSC(=S)N(CC)CC", "tested on": "HEK293T", "setting": "48 h", "endpoint": "CC50", "result": "86.7 µM"}
{"Compound": "CCCCCCCCC=CCCCCCCCCNC(=O)C(N)Cc1ccc(OP(=O)(O)COC(CO)Cn2ccc(N)nc2=O)cc1 (stereo not drawn)", "tested on": "ARPE-19", "assay": "cell growth or viability, neutral red", "endpoint": "CC50", "result": "3.4 µM"}
{"Compound": "O=C1NC(=O)c2c1c1cc(F)c[n+]3c1c1c2c2cc(O)ccc2[n]1[Ru-4]312([N]=C=S)[S+]3CC[S+]1CC[S+]2CC3 (stereo not drawn)", "tested on": "Epidermal growth factor receptor (EGFR, Homo sapiens, UniProt P00533, T790M)", "assay": "enzyme activity", "setting": "100 nM, human enzyme, added: 10 µM ATP", "how to read": "relative to: untreated", "endpoint": "remaining activity", "result": "83%"}
{"Compound": "O=c1c2ccccc2[se]n1-c1ccncc1F", "tested on": "HPAEpiC", "assay": "cell growth or viability, MTT", "setting": "24 h", "endpoint": "CC50", "result": "> 100 µM"}
{"Compound": "O=C1NC2(CC2)COc2ncc(F)cc2[C@H]2COCCN2c2ccn3ncc1c3n2", "test system": "Sprague-Dawley rat, female, heart", "setting": "oral, 5 mg/kg/day, 4 weeks, end of treatment", "endpoint": "organ-to-brain weight ratio", "result": "66.6 ± 6.18%"}
{"Compound": "COc1ccccc1-c1n[nH]c2nc(NC3CCN(C(=O)Cc4ccc(F)cc4F)CC3)ncc12", "assay": "bead binding, competition bead pull-down, refers to: LINJ.19.1590", "test system": "Leishmania donovani axenic amastigote extract", "setting": "10 µM", "how to read": "relative to: vehicle", "endpoint": "relative abundance", "result": 1.12}
{"Compound": "C[C@H]1[C@@H](OCc2cn(-c3cc4ccc(O)cc4oc3=O)nn2)O[C@@H]2O[C@@]3(C)CC[C@H]4[C@H](C)CC[C@@H]1[C@@]24OO3", "tested on": "J774", "assay": "cell growth or viability, ATP luminescence", "setting": "72 h", "endpoint": "CC50", "result": "9.56 µM"}
{"Compound": "CCCNC(=O)C1OC1C(=O)NC(C(=O)N1CCCC1C(=O)OC)C(C)CC (stereo not drawn)", "tested on": "HEK293T", "setting": "48 h", "endpoint": "CC50", "result": "47.7 µM"}
{"note": "Repeated from above:"}
{"Compound": "C[C@H]1[C@H](OC(=O)CCC(=O)OCc2cn(-c3cc4ccc(O)cc4oc3=O)nn2)O[C@@H]2O[C@@]3(C)CC[C@H]4[C@H](C)CC[C@@H]1[C@@]24OO3", "tested on": "J774", "assay": "cell growth or viability, ATP luminescence", "setting": "72 h", "endpoint": "CC50", "result": "37.6 µM"}
{"Compound": "COc1ccccc1-c1n[nH]c2nc(NC3CCN(C(=O)Cc4ccc(F)cc4F)CC3)ncc12", "assay": "bead binding, competition bead pull-down, refers to: LINJ.19.1590", "test system": "Leishmania donovani axenic amastigote extract", "setting": "10 µM", "how to read": "relative to: vehicle", "endpoint": "relative abundance", "result": 1.12}
